Assay results of several laboratories.
Each numbered part is a random draw from the data of one study; scales do not carry over between parts. “And” joins repeats or separate records; there may be more than shown.
Chain of UniProt P04049 (whole entry, looked up): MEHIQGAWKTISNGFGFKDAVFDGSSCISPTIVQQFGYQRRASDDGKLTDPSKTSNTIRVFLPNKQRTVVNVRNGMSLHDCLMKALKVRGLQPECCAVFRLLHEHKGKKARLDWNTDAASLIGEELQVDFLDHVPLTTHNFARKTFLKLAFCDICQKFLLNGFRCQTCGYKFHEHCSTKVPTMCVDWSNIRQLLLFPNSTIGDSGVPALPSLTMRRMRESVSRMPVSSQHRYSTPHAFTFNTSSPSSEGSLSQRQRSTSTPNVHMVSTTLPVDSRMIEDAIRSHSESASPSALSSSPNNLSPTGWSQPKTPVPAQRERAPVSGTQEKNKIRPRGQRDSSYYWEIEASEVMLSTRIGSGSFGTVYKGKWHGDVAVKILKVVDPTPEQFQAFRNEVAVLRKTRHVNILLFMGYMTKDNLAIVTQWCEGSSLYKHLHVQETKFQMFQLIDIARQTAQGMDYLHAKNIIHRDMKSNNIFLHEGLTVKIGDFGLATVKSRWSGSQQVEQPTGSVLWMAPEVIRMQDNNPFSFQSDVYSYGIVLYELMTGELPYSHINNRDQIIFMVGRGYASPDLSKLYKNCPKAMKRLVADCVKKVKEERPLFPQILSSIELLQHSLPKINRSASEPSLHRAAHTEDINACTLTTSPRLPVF
Chain of UniProt O15197 (whole entry, looked up): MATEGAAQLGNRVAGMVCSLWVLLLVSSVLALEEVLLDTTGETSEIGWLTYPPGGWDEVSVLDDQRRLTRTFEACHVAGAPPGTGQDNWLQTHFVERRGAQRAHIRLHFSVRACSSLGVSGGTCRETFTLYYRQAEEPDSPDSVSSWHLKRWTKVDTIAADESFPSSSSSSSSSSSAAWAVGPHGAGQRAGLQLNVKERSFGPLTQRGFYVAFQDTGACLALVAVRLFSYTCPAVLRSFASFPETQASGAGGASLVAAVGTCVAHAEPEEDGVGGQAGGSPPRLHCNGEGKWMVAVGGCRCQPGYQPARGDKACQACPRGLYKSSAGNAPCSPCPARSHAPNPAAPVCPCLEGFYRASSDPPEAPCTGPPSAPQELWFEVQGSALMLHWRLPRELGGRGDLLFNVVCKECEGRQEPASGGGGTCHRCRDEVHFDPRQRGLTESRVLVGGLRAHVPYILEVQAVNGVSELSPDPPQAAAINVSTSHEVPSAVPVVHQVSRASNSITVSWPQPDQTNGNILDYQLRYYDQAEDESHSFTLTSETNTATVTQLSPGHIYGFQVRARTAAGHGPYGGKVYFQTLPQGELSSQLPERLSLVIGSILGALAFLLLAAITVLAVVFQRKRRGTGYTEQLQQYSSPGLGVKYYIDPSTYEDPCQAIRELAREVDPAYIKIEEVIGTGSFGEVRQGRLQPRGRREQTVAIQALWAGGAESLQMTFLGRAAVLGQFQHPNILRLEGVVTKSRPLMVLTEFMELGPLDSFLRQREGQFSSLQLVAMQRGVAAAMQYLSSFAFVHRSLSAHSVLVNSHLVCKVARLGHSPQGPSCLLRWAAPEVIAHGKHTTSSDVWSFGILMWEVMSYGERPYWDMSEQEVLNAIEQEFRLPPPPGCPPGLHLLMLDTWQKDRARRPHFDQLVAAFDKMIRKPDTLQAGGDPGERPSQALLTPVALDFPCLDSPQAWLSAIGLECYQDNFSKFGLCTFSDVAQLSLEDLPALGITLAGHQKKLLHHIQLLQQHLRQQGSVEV
Chain of UniProt P37173 (whole entry, looked up): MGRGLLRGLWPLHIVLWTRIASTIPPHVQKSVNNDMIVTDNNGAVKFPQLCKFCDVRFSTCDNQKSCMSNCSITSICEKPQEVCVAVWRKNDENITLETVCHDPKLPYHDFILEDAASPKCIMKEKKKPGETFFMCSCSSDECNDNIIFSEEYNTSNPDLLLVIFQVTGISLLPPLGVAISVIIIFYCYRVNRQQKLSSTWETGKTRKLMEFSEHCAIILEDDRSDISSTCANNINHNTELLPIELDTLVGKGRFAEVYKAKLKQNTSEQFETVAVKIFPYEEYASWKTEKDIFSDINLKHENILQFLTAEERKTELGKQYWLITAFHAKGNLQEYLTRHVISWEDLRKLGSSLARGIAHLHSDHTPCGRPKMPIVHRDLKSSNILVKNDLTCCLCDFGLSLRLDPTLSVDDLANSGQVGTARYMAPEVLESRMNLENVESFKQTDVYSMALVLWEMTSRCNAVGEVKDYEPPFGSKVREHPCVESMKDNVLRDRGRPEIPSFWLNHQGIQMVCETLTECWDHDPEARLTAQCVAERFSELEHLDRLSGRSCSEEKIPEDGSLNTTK
Chain of UniProt Q16659 (whole entry, looked up): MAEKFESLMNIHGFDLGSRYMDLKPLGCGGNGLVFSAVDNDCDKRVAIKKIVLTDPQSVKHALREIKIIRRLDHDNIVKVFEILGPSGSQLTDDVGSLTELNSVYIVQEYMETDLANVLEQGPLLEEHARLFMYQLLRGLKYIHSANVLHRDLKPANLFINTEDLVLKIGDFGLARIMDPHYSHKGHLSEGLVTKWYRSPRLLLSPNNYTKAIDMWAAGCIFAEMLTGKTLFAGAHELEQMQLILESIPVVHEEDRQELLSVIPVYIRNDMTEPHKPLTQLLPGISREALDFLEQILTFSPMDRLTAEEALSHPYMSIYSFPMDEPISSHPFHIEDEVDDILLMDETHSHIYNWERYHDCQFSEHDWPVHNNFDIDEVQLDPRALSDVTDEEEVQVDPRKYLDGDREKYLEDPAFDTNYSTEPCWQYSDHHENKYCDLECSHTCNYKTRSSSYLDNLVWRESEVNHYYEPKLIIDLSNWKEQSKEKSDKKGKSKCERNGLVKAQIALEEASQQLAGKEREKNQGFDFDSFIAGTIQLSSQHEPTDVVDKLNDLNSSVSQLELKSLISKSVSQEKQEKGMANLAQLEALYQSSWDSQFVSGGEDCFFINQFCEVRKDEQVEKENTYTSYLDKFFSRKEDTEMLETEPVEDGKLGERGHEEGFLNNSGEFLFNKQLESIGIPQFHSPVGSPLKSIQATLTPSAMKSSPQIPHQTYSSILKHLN

Study 1
Target: Aurora kinase B (AURKB, Homo sapiens, UniProt Q96GD4)
Chain of UniProt Q96GD4 (whole entry, looked up): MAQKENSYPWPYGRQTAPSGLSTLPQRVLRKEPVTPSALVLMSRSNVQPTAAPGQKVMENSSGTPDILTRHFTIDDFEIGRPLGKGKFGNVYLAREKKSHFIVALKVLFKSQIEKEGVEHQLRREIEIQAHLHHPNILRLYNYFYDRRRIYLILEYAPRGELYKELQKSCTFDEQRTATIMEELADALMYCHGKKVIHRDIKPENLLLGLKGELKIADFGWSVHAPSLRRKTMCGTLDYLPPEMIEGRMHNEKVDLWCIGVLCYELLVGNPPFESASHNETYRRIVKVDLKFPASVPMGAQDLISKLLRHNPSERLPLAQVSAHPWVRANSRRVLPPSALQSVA
Observed: enzyme activity
Mode: inhibitor
Concentration: 0.5 µM
Relative to: control
Cn1cnc2cc3c(Nc4cccc(Br)c4)ncnc3cc21 gave a remaining activity of 78.2%.
CCC(=O)Nc1ccc2ncnc(Nc3cccc(Br)c3)c2c1 has a remaining activity of 95.4%.
Nc1[nH]nc2nnc(-c3c(-c4ccccc4)nn4ccccc34)cc12 has a remaining activity of 96.8%.
For COc1ccc(-c2cnc3c(-c4ccsc4)cnn3c2)cc1, the remaining activity was 50.8%.
With O=c1cc(N2CCOCC2)oc2c1ccc1ccccc12 the remaining activity was 97.6%.
The remaining activity of COc1cc2ncnc(Nc3ccc(OCc4ccccc4)cc3)c2cc1OC is reported as 50.3%.
The remaining activity of CN(C)CCCn1cc(C2=C(c3c[nH]c4ccccc34)C(=O)NC2=O)c2ccccc21 is reported as 86.6%.
Cc1nc(Nc2ncc(C(=O)Nc3c(C)cccc3Cl)s2)cc(N2CCN(CCO)CC2)n1 has a remaining activity of 92.5%.

Study 2
Structure (SMILES): O=C(NCc1ncc(C(F)(F)F)cc1Cl)c1ccc2c(c1)C1(CCS(=O)(=O)CC1)[C@H](C1CC1)N2S(=O)(=O)c1ccc(F)cc1
Method: competition with immobilised ligand
Concentration: 1 µM
Mitogen-activated protein kinase 9 (MAPK9, Homo sapiens, UniProt P45984); cell-free assay — remaining binding: 76%.
For Serine/threonine-protein kinase TNNI3K (TNNI3K, Homo sapiens, UniProt Q59H18); cell-free assay: remaining binding read 100%.
The remaining binding was 100% (TGF-beta receptor type-2 (TGFBR2, Homo sapiens, UniProt P37173); cell-free assay).
The remaining binding was 91% (Mitogen-activated protein kinase kinase kinase kinase 4 (MAP4K4, Homo sapiens, UniProt O95819); cell-free assay).
It gave 100% for remaining binding (Mitogen-activated protein kinase kinase kinase 14 (MAP3K14, Homo sapiens, UniProt Q99558); cell-free assay).
The remaining binding was 100% (Tyrosine-protein kinase receptor UFO (AXL, Homo sapiens, UniProt P30530); cell-free assay).
The remaining binding was 93% (Cyclin-dependent kinase 4, with cyclin D1 (CDK4, Homo sapiens, UniProt P11802); cell-free assay).
Tyrosine-protein kinase JAK2, JH1 (JAK2, Homo sapiens, UniProt O60674); cell-free assay — remaining binding: 80%.
For Mitogen-activated protein kinase 6 (MAPK6, Homo sapiens, UniProt Q16659); cell-free assay: remaining binding read 87%.
For Serine/threonine-protein kinase DCLK1 (DCLK1, Homo sapiens, UniProt O15075); cell-free assay: remaining binding read 83%.
Calcium/calmodulin-dependent protein kinase type 1B (PNCK, Homo sapiens, UniProt Q6P2M8); cell-free assay — remaining binding: 91%.
For Epithelial discoidin domain-containing receptor 1 (DDR1, Homo sapiens, UniProt Q08345); cell-free assay: remaining binding read 100%.
For Receptor-type tyrosine-protein kinase FLT3, autoinhibited (FLT3, Homo sapiens, UniProt P36888); cell-free assay: remaining binding read 95%.
It gave 88% for remaining binding (Non-receptor tyrosine-protein kinase TNK1 (TNK1, Homo sapiens, UniProt Q13470); cell-free assay).
Cyclin-dependent kinase 9 (CDK9, Homo sapiens, UniProt P50750); cell-free assay — remaining binding: 100%.
RAF proto-oncogene serine/threonine-protein kinase (RAF1, Homo sapiens, UniProt P04049); cell-free assay — remaining binding: 100%.
The remaining binding was 80% (Ephrin type-B receptor 6 (EPHB6, Homo sapiens, UniProt O15197); cell-free assay).
For Cyclin-dependent kinase 11A (CDK11A, Homo sapiens, UniProt Q9UQ88); binding: remaining binding read 100%.
The remaining binding was 76% (Receptor-type tyrosine-protein kinase FLT3 (FLT3, Homo sapiens, UniProt P36888, F691L/ITD); cell-free assay).

Study 3
Target: Calcium/calmodulin-dependent protein kinase type II subunit alpha (CAMK2A, Homo sapiens, UniProt Q9UQM7)
Chain of UniProt Q9UQM7 (whole entry, looked up): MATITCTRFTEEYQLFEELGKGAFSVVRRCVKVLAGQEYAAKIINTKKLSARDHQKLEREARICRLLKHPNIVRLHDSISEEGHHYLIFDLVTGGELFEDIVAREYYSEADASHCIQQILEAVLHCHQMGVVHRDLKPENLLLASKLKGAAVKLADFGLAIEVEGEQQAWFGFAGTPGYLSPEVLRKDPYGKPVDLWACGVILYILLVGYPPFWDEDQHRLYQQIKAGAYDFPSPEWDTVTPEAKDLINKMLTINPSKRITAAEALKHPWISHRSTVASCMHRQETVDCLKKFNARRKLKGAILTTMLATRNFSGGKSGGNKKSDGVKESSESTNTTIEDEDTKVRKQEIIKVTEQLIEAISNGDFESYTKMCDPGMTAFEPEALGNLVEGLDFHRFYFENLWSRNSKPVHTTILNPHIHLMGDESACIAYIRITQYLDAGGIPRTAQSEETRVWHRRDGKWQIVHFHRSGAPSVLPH
Observed: enzyme activity
Mode: inhibitor
Concentration: 10 µM
CNC(=S)NC gave an inhibition of -7%.
With COc1cc(C[C@H]2C(=O)OC[C@@H]2Cc2ccc(OC)c(OC)c2)ccc1O the inhibition was -33%.
CC(C(=O)O)C(O)(CC(=O)O)C(=O)O (stereo not drawn) gave an inhibition of -12%.
For O=C(O)CC(O)CC(=O)O, the inhibition was 4%.
With O=C(O)C(=O)O the inhibition was -0.15% and -0.12%.
O=CC1OC(=O)c2cc(O)c(O)c(O)c2-c2c(cc(O)c(O)c2O)C(=O)OC1C1OC(=O)c2cc(O)c(O)c(O)c2-c2c(O)c(O)c3oc(=O)c4c(c(O)c(O)c5oc(=O)c2c3c54)-c2c(cc(O)c(O)c2O)C(=O)OCC1O (stereo not drawn) gave an inhibition of -77%.
CCN(CC)CCOc1ccc2c(c1)C(=O)c1cc(OCCN(CC)CC)ccc1-2 has an inhibition of -3%.
The inhibition of CCCCNc1ccc(C(=O)OCCOCCOCCOCCOCCOCCOCCOCCOCCOC)cc1 is reported as -2%.
COc1cc2c(cc1O)CCN[C@]21CS[C@@H]2c3c(OC(C)=O)c(C)c4c(c3[C@H](COC1=O)N1[C@@H]2[C@H]2c3c(cc(C)c(OC)c3O)C[C@@H]([C@@H]1C#N)N2C)OCO4 gave an inhibition of -4%.

Study 4
Target: His6 tag
Method: AlphaScreen counter screen
Concentration: concentration not given
For COc1cc2nccc(Oc3ccc(NC(=O)NC4CC4)c(Cl)c3)c2cc1C(N)=O, the inhibition was 0.15%.
With COc1ccc(-c2nnc3ccc(SCC(N)=O)nn23)cc1OC the inhibition was -8.1%.
With Cc1c(C(=O)N2CCCCC2)sc2nc[nH]c(=O)c12 the inhibition was 3.3%.
For O=C(NNC(=O)c1c(O)c2ccccc2[nH]c1=O)c1cccc(Cl)c1, the inhibition was -1.2%.
CCCCCCCCCCCCCCCCCCOP(=O)([O-])OC1CC[N+](C)(C)CC1 has an inhibition of -9.7%.
With CC(C)[C@H](CO)Nc1nc(Nc2ccc(C(=O)O)c(Cl)c2)c2ncn(C(C)C)c2n1 the inhibition was -5.4%.
The inhibition of OC1CCCN(Cc2c(-c3ccc(F)cc3)[nH]c3ncccc23)C1 (stereo not drawn) is reported as 0.9%.
With COc1ccnc(C[S+]([O-])c2nc3ccc(OC(F)F)cc3[nH]2)c1OC (stereo not drawn) the inhibition was 5.5%.
For COc1ccc(-c2cc3c(C)nc(N)nc3n([C@H]3CC[C@H](OCCO)CC3)c2=O)cn1.O.O, the inhibition was -22.6%.
